Measured values of several laboratories.
Each numbered part is a random draw from the data of one study; scales do not carry over between parts.

Study 1 — technique: protein-binding microarray; form: double-stranded DNA, one strand shown; medium: in vitro; tested at: 250 nM; notes: 60-bp whole probe; together with: salmon DNA 0.4 mg/ml; relative to: random background probes; direction: higher = stronger binding; quantity: log fluorescence; constant ends, left off below: GCCTAGCAC … GTCTTGATTCGCTTGACGCTGCTG
Target: Interferon regulatory factor 5, full length, phosphomimetic (IRF5, Homo sapiens, UniProt Q13568-2, residues 1-514, K96S/S451D/S453D/S456D/S462D)
CACGGTTTCGACTTTCGGGACGTGCTA: 8.41 z-score
TTTGCTTTCTTTATGCACTCGTGCTAG: 2.48 z-score
TTAGGAATCGACACTGGGTTAGTGCTA: 0.309 z-score
GAACATACTGATTTCCACTTGTGCTAG: 0.617 z-score
TCAAGTCCCTATCTCCTACTGTGCTAG: 0.000799 z-score
TATGTTGTCCAGGCTGGTCTCGTGCTA: -0.159 z-score
TGATAAATCTTTGTTGGAGGGGTGCTA: 0.488 z-score

Study 2 — technique: protein-binding microarray; form: double-stranded DNA, one strand shown; medium: in vitro; tested at: not given; direction: higher = stronger binding; quantity: E-score
Target: Protein C-ets-1 (ETS1, Homo sapiens, UniProt P14921, residues 1-441, Y397A, full length assumed)
Notes: k-mer, scored over probes, only values ≥0.25
Construct (chain): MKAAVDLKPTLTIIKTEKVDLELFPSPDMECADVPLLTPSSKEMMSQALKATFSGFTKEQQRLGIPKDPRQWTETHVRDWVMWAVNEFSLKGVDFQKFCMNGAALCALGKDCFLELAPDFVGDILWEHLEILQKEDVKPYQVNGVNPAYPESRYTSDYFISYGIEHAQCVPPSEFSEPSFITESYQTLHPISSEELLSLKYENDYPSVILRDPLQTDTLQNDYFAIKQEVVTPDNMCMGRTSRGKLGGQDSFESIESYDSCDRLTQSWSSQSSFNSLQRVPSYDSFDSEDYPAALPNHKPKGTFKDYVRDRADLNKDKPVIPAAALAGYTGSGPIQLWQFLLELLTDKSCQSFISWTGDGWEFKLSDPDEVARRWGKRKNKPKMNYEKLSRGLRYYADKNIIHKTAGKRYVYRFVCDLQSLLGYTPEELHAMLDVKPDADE
ATTTGTCA: 0.404
ATTGCAAC: 0.301
ACATGCAA: 0.269
CGGCAAAG: 0.27
CGTCAAAC: 0.315

Study 3 — technique: universal PBM; form: double-stranded DNA, one strand shown; medium: in vitro; tested at: not given; direction: higher = stronger binding; quantity: E-score
Target: Sal-like protein 4, full length isoform B (SALL4, Homo sapiens, UniProt Q9UJQ4-2, residues 1-616)
Notes: 8-mer, flanks averaged, mean of replicates
AAATAAAT: 0.399
CCTCGCCC: -0.236
ATTCTTTG: 0.187
GTAGGCGA: -0.102
TAGGAAGA: 0.0468
CTAAACAA: 0.106
ACGTCGTA: 0.0308
CCGAACCC: -0.331

Study 4 — technique: Sort-seq; measured: YFP reporter; medium: E. coli; notes: PhoQ-PhoP variant library; together with: 10 µM Mg2+; relative to: high Mg2+ state; direction: higher = stronger signaling; quantity: fold induction
Molecule: PhoQ, residues 284 288 289 292 302 303 TNASYF
PhoP, residues 12 14 15 18 19 LHTVL (Escherichia coli, UniProt P23836): 16.4
PhoP, residues 12 14 15 18 19 NQCAL (Escherichia coli, UniProt P23836): 10
PhoP, residues 12 14 15 18 19 TQAML (Escherichia coli, UniProt P23836): 10.5
